# Results of several laboratories.
# Each line is one published result; not all experiments were run side by side. ± marks the error that the study gave.
SMILES,cell line,test,conditions,scale,measurement,result
CC(C)=C1CC[C@]2(COC(=O)c3ccccc3)[C@@H](OC(=O)c3ccccc3)/C=C(\C)CC[C@@H]3O[C@@]3(C)C[C@@H](OC(=O)c3cccnc3)[C@@H]12,"HepG2, palmitic acid-induced insulin resistance",,"10.0 µM, 24 h",,glucose consumption,6.98 ± 0.72 mM
Cc1c(C(=O)NNC(=S)Nc2ccc(Cl)cc2)nnn1Cc1nc2ccccc2[nH]1,HepG2,PI flow cytometry,concentration not given,,cells in G2/M phase,14%
Cc1cc(/N=N/c2ccc(/N=N/c3ccc(O)c(C(=O)O)c3)cc2)c(N)cc1N,primary mouse articular chondrocytes,"real-time PCR, measured: Phlpp2",25 µM,,mRNA level,decreased
C=CC(=O)Nc1cc(Nc2nccc(-c3c(-c4cccc(F)c4)n(C)c4ccccc34)n2)c(OC)cc1N(C)CCN(C)C,H1975,"Western blot, measured: cleaved caspase-3","concentration not given, 24 h",,protein level,increased
COc1cc(CNC(=O)C[C@H](C)CCC=C(C)C)ccc1OCc1cn(-c2ccc(Cl)cc2Cl)nn1,OVCAR-4 ovarian cancer cells,SRB,"10 µM, 48 h",,growth percent,49.7%
O=Cc1c(O)ccc2ccccc12,HUVEC,"RNA sequencing, measured: GEM","75 µM, 24 h",reference: DMSO,log2 fold change,2.45
COc1cc(CNC(=O)C[C@H](C)CCC=C(C)C)ccc1OCc1cn(-c2cccc([N+](=O)[O-])c2)nn1,SF-268 CNS cancer cells,SRB,"10 µM, 48 h",,growth percent,73.2%
C[n+]1cn(C2OC(COP(=O)(O)OP(=O)([O-])OP(=O)(O)OCC3OC(n4cnc5c(=O)[nH]c(N)nc54)C(O)C3O)C(O)C2O)c2nc(NCc3ccccc3)[nH]c(=O)c21 (stereo not shown),HEK293 transfected with capped mRNA,luciferase expression,,reference: m7GpppG-capped mRNA,relative protein expression,1.8 ± 0.34
COC(=O)C1=CNC=C(C(=O)OC)C1c1ccc(F)c(C(F)(F)F)c1,mouse microglia,,"1 µM, added: thapsigargin",,store-operated calcium entry,decreased
Cc1cc(-c2cn([C@@H]3O[C@H](CO)[C@@H](O)[C@H]3O)c3ncnc(N)c23)ccc1Cl,HEK,cytotoxicity,,,EC50,> 200 µM
COc1ccc(-c2cc(C(F)(F)F)nc(S(=O)(=O)CCCC(=O)Nc3ccc(F)cc3F)n2)cc1OC,rat INS-1 832/13 cells,,"20 µM, no GLP-1, added: 15 mM glucose",reference: DMSO,insulin secretion,increased
COc1cc(CNC(=O)C[C@H](C)CCC=C(C)C)ccc1OCc1cn(-c2ccc(F)cc2)nn1,SW-620,SRB,"10 µM, 48 h",,growth percent,101%
CC(Cc1ccc(Cl)cc1)=C(c1ccc(Cl)cc1)c1ccc(OCCN2CCCC2)cc1,NCI-60 tumour cell lines,,"10 µM, mean over cell lines",,growth inhibition,26.7%
COc1cc(CNC(=O)C[C@H](C)CCC=C(C)C)ccc1OCc1cn(-c2ccc(C#N)cc2)nn1,UACC-257 melanoma cells,SRB,"10 µM, 48 h",,growth percent,68.7%
Cc1cc(O)c2c(C(=O)[O-])[n+]3n(c2c1)CCCC3,"HepG2, palmitic acid-induced insulin resistance",,"2.5 µM, 24 h",,glucose consumption,6.75 ± 0.51 mM
COc1cc(CNC(=O)C[C@H](C)CCC=C(C)C)ccc1O,MDA-MB-468 breast cancer cells,SRB,"10 µM, 48 h",,growth percent,99%
Fc1ccc(Nc2nc(NC3CCCCC3)c3ccccc3n2)cc1F,HASM,scratch,"1 µM, added: isoprenaline 1 µM",,isoprenaline inhibition of migration,increased
COc1cc(CNC(=O)C[C@H](C)CCC=C(C)C)ccc1OCc1cn(-c2ccc(Br)cc2)nn1,SR leukaemia cells,SRB,"10 µM, 48 h",,growth percent,63.8%
CCC(=C(c1ccc(Cl)cc1)c1ccc(OCCN2CCCC2)cc1)c1ccc(Cl)cc1,NCI-60 tumour cell lines,,"10 µM, mean over cell lines",,growth inhibition,5.44%

# For quick reference, copied from above:
SMILES,cell line,test,conditions,scale,measurement,result
CC(C)=C1CC[C@]2(COC(=O)c3ccccc3)[C@@H](OC(=O)c3ccccc3)/C=C(\C)CC[C@@H]3O[C@@]3(C)C[C@@H](OC(=O)c3cccnc3)[C@@H]12,"HepG2, palmitic acid-induced insulin resistance",,"10.0 µM, 24 h",,glucose consumption,6.98 ± 0.72 mM
Cc1c(C(=O)NNC(=S)Nc2ccc(Cl)cc2)nnn1Cc1nc2ccccc2[nH]1,HepG2,PI flow cytometry,concentration not given,,cells in G2/M phase,14%
